# Results gathered from unrelated publications.
# pIC50: −log10 of the molar value.
# Organism: Mycobacterium tuberculosis
SMILES,assay,test system,setting,endpoint,value
CCCCCCCCCCC(C)(C)C(=O)NS(=O)(=O)OC[C@H]1O[C@@H](n2cnc3c(N)ncnc32)[C@H](O)[C@@H]1O,broth microdilution,"H37Rv, GAST medium",MIC at >99% growth inhibition,MIC,12.5 to 25 µM
Clc1ccc(NCc2ccc(Oc3ccccn3)cc2)cc1,,"H37Rv, GAST-Fe medium","2 weeks, pH 6.6",MIC,20 to 40 µM
Nc1ncnc2c1ncn2[C@@H]1O[C@H](COS(=O)(=O)NC(=O)CCCCCCCCCCOc2cccc(F)c2)[C@@H](O)[C@H]1O,broth microdilution,"H37Rv, GAST medium",MIC at >99% growth inhibition,MIC,25 to 50 µM
O=C(OCc1ccccc1)c1cc(-c2ccccc2)[nH]n1,microplate alamar blue,"H37Rv (ATCC 27294), GAS medium","replicating bacteria, range",MIC,1.8 to 4.3 µM
NNC(=O)c1ccncc1,,"H37Rv, GAST-Fe medium","2 weeks, pH 6.6",MIC,0.2 to 0.4 µM
CC(C)=CCCC(C)=CCNCCNC1(C)C2CC3CC(C2)CC1C3 (stereo not shown),growth,H37Rv,,pIC50,5.70
O=C(OCc1ccccc1)[C@@H]1CSC(c2ccccc2)=N1,microplate alamar blue,"H37Rv (ATCC 27294), GAS medium","replicating bacteria, range",MIC,9.1 to 18.3 µM
Cc1cccc(NCc2ccc(Oc3ccccn3)cc2)c1,,"H37Rv, 7H9/ADC/Tween medium",2 weeks,MIC,> 100 µM
O=C(OCc1ccccc1)c1cc(-c2ccccc2)on1,microplate alamar blue,"H37Rv (ATCC 27294), 7H12 medium","replicating bacteria, range",MIC,0.7 to 0.8 µM
CCCCCCCCCOCC(=O)NS(=O)(=O)OC[C@H]1O[C@@H](n2cnc3c(N)ncnc32)[C@H](O)[C@@H]1O,broth microdilution,"H37Rv, GAST medium",MIC at >99% growth inhibition,MIC,0.098 to 3.13 µM
CC(C)=CCC/C(C)=C/CNCCNC1C2CC3CC(C2)CC1C3 (stereo not shown),growth,HN878,,pIC50,6.00 to 6.40
Cc1ccn2c(C(=O)NCc3ccccc3)c(C)nc2c1,microplate alamar blue,"H37Rv (ATCC 27294), GAS medium","replicating bacteria, range",MIC,0.4 to 1.1 µM
Fc1ccccc1NCc1ccc(Oc2ccccn2)cc1,,"H37Rv, GAST-Fe medium","week 2, pH 6.6",MIC,70 µM
CCCCCCCCC[C@@H]1C[C@@H]1C(=O)NS(=O)(=O)OC[C@H]1O[C@@H](n2cnc3c(N)ncnc32)[C@H](O)[C@@H]1O,broth microdilution,"H37Rv, GAST medium",MIC at >99% growth inhibition,MIC,50 to 100 µM
Cc1nc2ncccn2c1C(=O)OCc1ccccc1,microplate alamar blue,"H37Rv (ATCC 27294), 7H12 medium","replicating bacteria, range",MIC,3.2 to 5.2 µM
Fc1ccc(NCc2ccc(Oc3ccccn3)cc2)cc1,,"H37Rv, GAST-Fe medium","1 weeks, pH 6.6",MIC,19 µM

# Some of these lines once more:
SMILES,assay,test system,setting,endpoint,value
CCCCCCCCCOCC(=O)NS(=O)(=O)OC[C@H]1O[C@@H](n2cnc3c(N)ncnc32)[C@H](O)[C@@H]1O,broth microdilution,"H37Rv, GAST medium",MIC at >99% growth inhibition,MIC,0.098 to 3.13 µM
CC(C)=CCC/C(C)=C/CNCCNC1C2CC3CC(C2)CC1C3 (stereo not shown),growth,HN878,,pIC50,6.00 to 6.40
Cc1ccn2c(C(=O)NCc3ccccc3)c(C)nc2c1,microplate alamar blue,"H37Rv (ATCC 27294), GAS medium","replicating bacteria, range",MIC,0.4 to 1.1 µM
